# Results of several laboratories.
# Compare with care: the assays were run in different laboratories. Numbers after ± are the reported error.
Substance,organism,assay,test system,conditions,scale,endpoint,result
O=C(N[C@H](Cc1ccccc1)C(=O)Nc1ccccc1N1CCOCC1)c1cccs1,Mycobacteroides abscessus,microbial growth,ATCC19977,,,MIC90,6.25 to 12.5 µM
N#Cc1ccc(-c2ccc(-c3ccco3)o2)c(F)c1,Salmonella enterica,sodium azide mutagenicity,TA1535,"20 µM, 48 h, added: sodium azide 2 µg/plate co-exposure",,inhibition,95 ± 13.6%
CN1CCN2CCN(CC1)CCN(Cc1ccccc1)CC2,Leishmania donovani,"parasite growth, resazurin",,"72 h, promastigote",,IC90,> 20 µM
LSTFFRLFNGRRRRSVQWCA,Streptococcus mutans,OD600,"peptide, UA159, 4 h single-species biofilm","128 µg/ml, 5 min exposure, OD600 read over 5 h",,biofilm growth,decreased
CN1CCCN2CCN(CCCN(Cc3ccccc3)CC2)CC1,Leishmania donovani,"parasite growth, resazurin",,"72 h, promastigote",,IC90,> 20 µM
CN(Cc1cnc2nc(N)nc(N)c2n1)c1ccc(C(=O)N[C@@H](CCC(=O)O)C(=O)O)cc1,Trypanosoma brucei brucei,Alamar blue,Lister 427 bloodstream form,"concentration not given, 10% fetal calf serum",,ED50,2.7 ± 0.1 µM
O=Cc1cn(Cc2ccc(F)cc2)c2ccc([N+](=O)[O-])cc12,Trypanosoma equiperdum,,"trypomastigotes, IVM-t1",,,IC50,> 84 µM
C[C@H](Cn1cnc2c(N)ncnc21)OCP(=O)(O)O,hepatitis B virus,viral replication,HepG2.2.15,,,EC90,7.7 ± 0.6 µM
N#Cc1ccc(-c2ccc(-c3ccco3)o2)cc1F,Salmonella enterica,,TA1535,"10 µM, 48 h, added: sodium azide co-exposure",reference: sodium azide alone,mutant frequency,25%
CCOC(=O)C1=C(C)NC(C)=C(C(=O)OC)C1c1cccc([N+](=O)[O-])c1 (stereo not shown),human respiratory syncytial virus,,"BEAS-2B, A2-L19F-renilla",concentration not given,,antiviral activity,inactive
COc1c(C[C@@H](C)OC(=O)Oc2ccc(O)cc2)c2c3c(C[C@@H](C)OC(=O)c4ccccc4)c(OC)c(=O)c4c(O)cc(OC)c(c5c(OC)cc(O)c(c1=O)c52)c43,Aspergillus fumigatus,metabolic activity (XTT),,"48 h, 37 °C, added: colistin 20 µM",,effective concentration,25 µg/mL
Cc1cccc(C2=NN3C(=NCN3/C=C/c3ccccc3)S2)c1,Aedes aegypti,,,third instar larvae,,LC50,130 µg/mL
N=C(N)c1ccc(-c2ccc(-c3cccs3)o2)cc1F,Salmonella enterica,,TA1535,"10 µM, 48 h, added: sodium azide after pre-exposure",reference: sodium azide alone,mutant frequency,43%
c1ccc(CN2CCN3CCCN(CC2)CCN(Cc2ccccc2)CC3)cc1,Leishmania donovani,"parasite growth, resazurin",,"72 h, amastigote",,IC90,> 25 µM
C/C=C/C=C/C(=O)N/N=C/c1ccccc1Cl,"Staphylococcus aureus, Bacillus subtilis, Escherichia coli",bacterial growth,,24 h,,MIC,50.1 µM
CC[C@H](C)CCCCC(=O)N[C@@H](CCN)C(=O)N[C@H](C(=O)N[C@@H](CCN)C(=O)N[C@H]1CCNC(=O)[C@H]([C@@H](C)O)NC(=O)[C@H](CCN)NC(=O)[C@H](CCN)NC(=O)[C@H](CC(C)C)NC(=O)[C@@H](Cc2ccccc2)NC(=O)[C@H](CCN)NC1=O)[C@@H](C)O,Enterobacter cloacae,,"carbapenem-resistant, human","inhaled plus intravenous, 25 mg inhaled plus 75 mg intravenous every 12 h, 11 d, added: fosfomycin and sulfamethoxazole",,microbiological response at end of treatment,negative
N#Cc1ccc(-c2ccc(-c3cccs3)o2)c(F)c1,Salmonella enterica,,TA1535,"10 µM, 48 h, added: sodium azide co-exposure",reference: sodium azide alone,mutant frequency,31%
COc1cc(C=NN2C(S)=NCN2/C=C/c2ccccc2)ccc1O,Aedes aegypti,,,third instar larvae,,LC50,110 µg/mL
N=C(N)c1ccc(-c2ccc(-c3ccco3)o2)c(F)c1,Salmonella enterica,sodium azide mutagenicity,TA1535,"10 µM, 48 h, added: sodium azide 2 µg/plate after pre-exposure",,inhibition,74%
Nc1cc2nc[nH]c2c(=O)[nH]1,Enterovirus D68,,"RD, US/KY/14-18953",72 h,,EC90,8 ± 1.1 µM
C/C=C(C)/C=C/C=C/[C@H](OC)[C@@H](C)[C@@H](OC)[C@@H](C)CCc1oc2c(O)c(OC)cc(OC)c2c(=O)c1C,Zymoseptoria tritici,"disease control, glasshouse foliar spray",Triticum aestivum,disease control 100%,,lowest effective concentration,> 180 µM
N#Cc1ccc(-c2ccc(-c3cccs3)s2)cc1F,Salmonella enterica,,TA1535,"20 µM, 48 h, added: sodium azide after pre-exposure",reference: sodium azide alone,mutant frequency,16%
CN(C)CCCN1c2ccccc2Sc2ccc(Cl)cc21,coronavirus spike pseudovirus,luciferase reporter,ACE2-high cells,"20 µM, unit not given",reference: untreated,pseudovirus entry,0.76 ± 0.11
N=C(N)c1ccc(-c2ccc(-c3cccs3)o2)c(F)c1,Salmonella enterica,sodium azide mutagenicity,TA1535,"20 µM, 48 h, added: sodium azide 2 µg/plate co-exposure",,inhibition,105%
COc1cc2nc(N3CCCN(C)CC3)nc(NC3CCN(Cc4ccccc4)CC3)c2cc1OC,human respiratory syncytial virus,,"BEAS-2B, A2-L19F-renilla",concentration not given,,antiviral activity,inactive
C[C@H](Cn1cnc2c(N)ncnc21)OCP(=O)(O)O,human alphaherpesvirus 2,"virus production, plaque reduction",human monocytes/macrophages,"100 µg/mL, 6 days",,inhibition,100%
N=C(N)c1ccc(OCCCCCOc2ccc(C(=N)N)cc2)cc1,Trypanosoma brucei rhodesiense,,"STIB900, mouse","intraperitoneal, 5 mg/kg, 1440 h",,responders,50%
COc1cc(C(=O)NS(=O)(=O)c2ccccc2C)ccc1Cc1cn(C)c2ccc(NC(=O)OC3CCCC3)cc12,dengue virus type 2 New Guinea C,viral yield,,single-cycle yield reduction,,IC90,7 ± 2.8 µM
CP(=O)(O)CCC(N)C(=O)O (stereo not shown),Eleusine indica,,,"60 g/ha, 13 days, ELEIN, post-emergence spray","reference: untreated (0%), complete kill (100%)",herbicidal activity,80%
C/C(=C\Cc1c(O)c(Cl)c(C)c(C=O)c1O)CC/C=C(\C)[C@@H]1CC(=O)C(C)(C)O1,Wickerhamomyces anomalus,"O2 uptake, inhibitor",mitochondria,added: glycerol 3-phosphate 20 mM,,IC50,36.5 µM
meglumine antimoniate,Leishmania infantum,,J774.2 macrophages,"IC25, day 10",reference: untreated,inhibition of infection,29%
C=C1[C@H](CO)[C@@H](O)C[C@@H]1n1cnc2c(=O)[nH]c(N)nc21,hepatitis B virus,viral replication,HepG2.2.15,,,EC90,0.03 ± 0.002 µM
Oc1ccc(C2=NN3C(=NCN3/C=C/c3ccccc3)S2)cc1O,Aedes aegypti,,,third instar larvae,,LC50,120 µg/mL
O=Cc1cn(Cc2ccccc2)c2ccc([N+](=O)[O-])cc12,Leishmania major,"parasite growth, resazurin",THP-1,"24 h, intracellular, amastigote",,IC50,> 10 µM
C=CC1=C(C)/C(=C/C2=NC(=C\c3[nH]c(/C=C4\NC(=O)C(C)=C4C=C)c(C)c3CCC(=O)O)/C(CCC(=O)O)=C2C)NC1=O,hepatitis C virus,"viral replication, RT-PCR",Huh5-15 NS replicon,48 h,,lowest effective concentration,20 µM
c1ccc(CN2CCN3CCN(CC2)CCN(Cc2ccccc2)CC3)cc1,Leishmania donovani,"parasite growth, resazurin",,"72 h, amastigote",,IC90,22.3 µM
O=C(O)C(Cl)Cl,Leishmania infantum,,"U-937 macrophages, infected","273 µM, 48 h, highest non-cytotoxic concentration",,decrease of intracellular amastigotes,31.1%
CCN(CC)CCCC(C)Nc1ccnc2cc(Cl)ccc12 (stereo not shown),Plasmodium yoelii,,"Kenya MRA-428, mouse",oral,,ED50,2.2 mg/kg/day
N#Cc1ccc(-c2ccc(-c3cccs3)o2)cc1F,Salmonella enterica,,TA1535,"10 µM, 48 h, added: sodium azide co-exposure",reference: sodium azide alone,mutant frequency,35%
Cc1ccc(C(=O)N/N=C/c2ccccc2Cl)cc1,Aspergillus niger,tube dilution,,"7 days, 25 °C",,MIC,< 25.1 µM
